Results gathered from unrelated publications.
± marks the error that the study gave.

| SMILES | test | system | setting | scale | endpoint | result |
| --- | --- | --- | --- | --- | --- | --- |
| C#Cc1c(F)ccc2cc(O)cc(-c3ncc4c(N5CC6CCC(C5)N6C(=O)CC(C)CC(=O)OCC)nc(OC[C@@]56CCCN5C[C@H](F)C6)nc4c3F)c12 (some centres unmarked) | chemical stability | simulated intestinal fluid | 1 µM, 30 min | – | compound remaining | 110% |
| Cc1ccc(C(C)C)cc1.O=C(N=P(c1ccccc1)(c1ccccc1)c1ccccc1)c1ccccn1.[Cl-].[Cl-].[Ru+2] | – | C57BL/6 mice | 5 mg/kg/day, 7 days | – | body weight loss | 15% |
| CC[C@H](C)C(=O)N1CCC(NC(=O)Nc2ccc(OC(F)(F)F)c(F)c2)CC1 | – | healthy volunteers | oral, 8 mg | relative to: fed over fasted | Tmax difference | 4.8 min |
| COCC(=O)NCCSc1c(-c2ccc(Br)cc2)[nH]c2ccccc12 | – | rat | oral | – | oral bioavailability | 11% |
| [2H]C([2H])([2H])C([2H])([2H])C([2H])([2H])OC(C(=O)OC1CCNCC1)(c1ccccc1)c1ccccc1 | – | healthy Japanese male subjects, plasma | oral, 15 mg, day 1, mean | – | tmax | 4.9 h |
| CN(C)C(CNC(=O)Nc1cc(C(F)(F)F)ccc1N1CCOCC1)c1ccncc1 (centres unmarked) | – | mouse, serum | intraperitoneal, 240 mg/kg single dose | – | serum calcium | 8.6 mg/dL |
| COc1c(C[C@@H](C)O)c2c3c(C[C@@H](C)O)c(OC)c(=O)c4c(O)cc5c(c6c(cc(O)c(c1=O)c62)OCO5)c43 | – | – | at 670 nm | – | molar absorption coefficient | 120 M⁻¹ cm⁻¹ |
| COC(=O)C[C@](O)(CCCC(C)(C)OC(C)=O)C(=O)O[C@@H]1C(OC)=C[C@]23CCCN2CCc2cc4c(cc2[C@H]13)OCO4 | – | CD1 mouse, liver | oral, 1 mg/kg, 8 h, below quantification limit 1.00 ng/mL | – | tissue concentration | not detected |
| C/C=C/C=C/C/C=C/CCCCCCCc1cccc(O)c1O | – | female Kunming mice tumour-bearing, kidneys | intravenous, 10 mg/kg, 0.083 h | – | tissue concentration | 22300 ± 2630 ng/g |
| COc1ccc(-c2oc3ccc(-c4cc(OC)c(OC)c(OC)c4)cc3c2C#CC(C)(C)O)cc1 | metabolic stability | mouse, liver microsomes | – | – | half-life | > 30 min |
| C/C(=N\OCCCN1CCCCC1)c1ccc(C(F)(F)F)cc1 | – | mouse, plasma | oral, 10 mg/kg | – | bioavailability | 76.4% |
| CSCC[C@@H]1NC(=O)[C@@H]2CSSC[C@H](NC(=O)[C@H](CO)NC(=O)[C@H](C)N)C(=O)N[C@@H](CCCNC(=N)N)C(=O)N[C@@H]([C@@H](C)O)C(=O)N3CCC[C@H]3C(=O)N[C@@H](CCCCN)C(=O)N[C@@H](CC(=O)O)C(=O)N[C@H]3CSSC[C@H](NC(=O)[C@H](CCCCN)NC(=O)[C@H](CCCNC(=N)N)NC(=O)[C@H](CC(N)=O)NC1=O)C(=O)N[C@@H](CCCCN)C(=O)N[C@H]1CSSC[C@H](NC(=O)[C@@H]4CCCN4C(=O)[C@H](CC(=O)O)NC(=O)[C@H](C)NC3=O)C(=O)N[C@@H](C)C(=O)N[C@@H](CCCCN)C(=O)N[C@@H](CCC(=O)O)C(=O)N[C@@H]([C@@H](C)O)C(=O)NCC(=O)N[C@@H](CSSC[C@@H](C(N)=O)NC(=O)[C@H](CCCNC(=N)N)NC(=O)[C@H](CC(N)=O)NC1=O)C(=O)N1CCC[C@H]1C(=O)N[C@@H](Cc1ccc(O)cc1)C(=O)NCC(=O)N[C@@H](CCCCN)C(=O)N2 | – | DA rat pristane-induced arthritis, serum | subcutaneous, 0.1 mg/kg every other day, 21 days | – | Calcium | 8.96 mg/dL |
| CCCCCCCCCCCCC(=O)O.O=C1CCCC2C3CCCN4CCCC(CN12)C34 (centres unmarked) | electrical conductivity | water | 313.15 K, critical micelle concentration | – | standard Gibbs energy of micellization | -36.8 kJ/mol |
| CC[C@H](C)[C@@H]1NC(=O)[C@H](CCCCN)NC(=O)[C@H](CCCCN)NC(=O)[C@H](Cc2ccc(O)cc2)NC(=O)[C@H](CC(C)C)NC(=O)[C@@H]2CCCN2C(=O)[C@H](C)NC(=O)CNC(=O)CNC(=O)[C@H](CO)NC(=O)CNC(=O)CNC(=O)[C@H](CO)NC(=O)[C@H](CCC(=O)O)NC(=O)[C@H](CC(C)C)NC(=O)[C@H](CC(C)C)NC(=O)[C@H](CCCCN)NC(=O)[C@H](CCCCN)NC(=O)[C@H](C(C)C)NC(=O)[C@H]([C@@H](C)CC)NC(=O)[C@H](CCCCN)NC(=O)[C@H](CCCCN)NC(=O)[C@H](Cc2ccc(O)cc2)NC(=O)[C@H](CC(C)C)NC(=O)[C@@H]2CCCN2C(=O)CNC(=O)CNC(=O)[C@@H](NC(=O)CN)CSSC[C@@H](C(N)=O)NC(=O)[C@H](CC(C)C)NC(=O)[C@H](CCCCN)NC(=O)[C@H](CCCCN)NC(=O)[C@H](C(C)C)NC1=O | hemolysis | uninfected human erythrocytes | 1 h | – | HC10 | ~52 µM |
| CC[C@@H]1C[C@]1(NC(=O)[C@@H]1C[C@@]2(CN1C(=O)[C@@H](NC(=O)[C@@H](NC(=O)[C@@H]1CCCCN1C(C)C)C1CCCCC1)C(C)(C)C)C(C)(C)C21CCC1)C(=O)NS(=O)(=O)N1CCCC1 | – | human | together with: ritonavir co-administration | – | tolerability | not toxic |
| CC(=O)NCC(=O)N[C@@H](CO)C(=O)N[C@@H](CCCCNP(=O)(O)O)C(=O)NCC(=O)NCC(N)=O | non-enzymatic hydrolysis | – | 100 µM, pH 7.8, no enzyme | – | first-order rate constant | 2.47e-05 s⁻¹ |

| SMILES | test | system | setting | scale | endpoint | result |
| --- | --- | --- | --- | --- | --- | --- |
| COc1ccc(C)cc1NC(=O)OC1CC2CCCC(C1)N2Cc1ccc(CC[18F])cc1 (centres unmarked) | – | BALB/c mice, EMT6 tumour | 2 h | relative to: tumour over fat | tumour to tissue ratio | 0.32 |
| CC(C)[C@H](NC(=O)CNC(=O)[C@H](CCC(N)=O)NC(=O)[C@H](C)N)C(=O)O | – | healthy male volunteers | intravenous, 15 mg/kg/h, 2 h, together with: LPS 2 ng/kg | – | subjects with moderate AE | 0% |
| O=P([O-])([O-])Oc1ccc(-c2cc(=S)ss2)cc1.[Na+].[Na+] | HPLC | PBS | 48 h, pH 7.4, 25 °C | – | solubility | 1690 µg/mL |
| CSCC[C@H](NC(=O)CNC(=O)[C@H](CC(=O)O)NC(=O)[C@@H](NC(=O)[C@@H](NC(=O)[C@@H](NC(=O)CNC(=O)[C@H](CCC(=O)O)NC(=O)[C@H](CCSC)NC(=O)[C@H](CC(=O)O)NC(=O)[C@H](C)NC(=O)[C@H](C)NC(=O)[C@@H](NC(=O)[C@H](CO)NC(=O)[C@@H](N)CC(C)C)[C@@H](C)O)C(C)C)C(C)C)[C@@H](C)O)C(=O)N[C@@H](C)C(=O)N[C@@H](CO)C(=O)NCC(=O)N[C@@H](CC(C)C)C(=O)N[C@@H](CC(=O)O)C(=O)N[C@@H](CCCCN)C(=O)N[C@@H](CC(=O)O)C(=O)N[C@@H](Cc1ccc(O)cc1)C(=O)N[C@@H](CC(C)C)C(=O)N[C@@H](CCCCN)C(=O)N1CCC[C@H]1C(=O)N[C@@H](CC(=O)O)C(=O)N[C@@H](CC(=O)O)C(=O)O | – | CD-1 mouse, male, serum | intravenous, 480 mg/kg, 1 h | – | serum concentration | 668 to 22500 ng/mL |
| NS(=O)(=O)NCC(O)c1ccccc1F (centres unmarked) | rotarod impairment | mouse | intraperitoneal | – | TD50 | > 500 mg/kg |
| N=C(N)NCc1ccc(C(=O)NCCCC[C@H](NC(=O)N[C@@H](CCC(=O)O)C(=O)O)C(=O)O)cc1[131I] | – | SCID mouse, PC-3 xenografts, bone | 1 h | – | tissue uptake | 0.66 ± 0.26 %ID/g |
| CCC(C)n1c(C(=O)Nc2cnc(C(=O)NC)n(CC(C)C)c2=O)ncc(NC(=O)c2ncc(NC(=O)c3ccccc3)c(=O)n2Cc2ccc(OC)cc2)c1=O (centres unmarked) | – | MOLT-4, zebrafish embryo xenograft | 500 nM, 48 h | – | developmental toxicity | not toxic |
| CC[C@H](C)[C@H](NC(=O)[C@H](CCC(=O)O)NC(=O)[C@H](CCC(=O)O)NC(=O)[C@H](Cc1ccccc1)NC(=O)[C@H](CC(=O)O)NC(=O)CNC(=O)[C@H](CC(N)=O)NC(=O)CNC(=O)CNC(=O)CNC(=O)CNC(=O)[C@@H]1CCCN1C(=O)[C@H](CCCNC(=N)N)NC(=O)[C@@H]1CCCN1C(=O)[C@H](N)Cc1ccccc1)C(=O)N1CCC[C@H]1C(=O)N[C@@H](CCC(=O)O)C(=O)N[C@@H](CCC(=O)O)C(=O)N[C@@H](Cc1ccc(O)cc1)C(=O)N[C@@H](CC(C)C)C(=O)O | LC-MS/MS | human plasma QC samples | time not given, range over storage conditions | – | recovery | 93.7 to 101% |
| Cc1cc(-c2ccc3ccccc3c2)nnc1NCCN1CCN(C)CC1 | – | rat | oral, dose not given | – | AUC(0-last) | 1400 ng·h/mL |
| Cc1cc(Nc2nc(C[C@@]3(C(=O)O)CCN(Cc4cccc(Cl)c4F)[C@H](C)C3)cc(C)c2F)n[nH]1 | – | beagle dog, both sexes, plasma | intravenous, 1 mg/kg | – | clearance | 3.96 mL/min/kg |
| CSCC[C@H](NC(=O)CNC(=O)[C@H](CC(=O)O)NC(=O)[C@@H](NC(=O)[C@@H](NC(=O)[C@@H](NC(=O)CNC(=O)[C@H](CCC(N)=O)NC(=O)[C@H](CCSC)NC(=O)[C@H](CC(=O)O)NC(=O)[C@H](C)NC(=O)[C@H](C)NC(=O)[C@@H](NC(=O)[C@H](CO)NC(=O)[C@@H](N)CC(C)C)[C@@H](C)O)C(C)C)C(C)C)[C@@H](C)O)C(=O)N[C@@H](C)C(=O)N[C@@H](CO)C(=O)NCC(=O)N[C@@H](CC(C)C)C(=O)N[C@@H](CC(=O)O)C(=O)N[C@@H](CCCCN)C(=O)N[C@@H](CC(=O)O)C(=O)N[C@@H](Cc1ccc(O)cc1)C(=O)N[C@@H](CC(C)C)C(=O)N[C@@H](CCCCN)C(=O)N1CCC[C@H]1C(=O)N[C@@H](CC(=O)O)C(=O)N[C@@H](CC(=O)O)C(=O)O | – | human, serum | intravenous, 1.66 mg/kg, patients, infusion | – | Tmax | 4.8 min |
| CC(C)[C@@H]1NC(=O)[C@H](Cc2ccccc2)NC(=O)[C@H](Cc2ccc(O)cc2)NC(=O)CCSSC[C@@H](C(=O)N2CCC[C@H]2C(=O)N[C@H](CCCNC(=N)N)C(=O)NCC(N)=O)NC(=O)[C@H](CCC(N)=O)NC1=O | – | Wistar rat, blood | intravenous, 10 µg/kg single dose, 72 h | – | GGT | 3.2 ± 1.1 IU/L |
| CC(=O)[O-].CN1CCCN2CCN(C)CCCN(CC1)CC2.F[P-](F)(F)(F)(F)F.[Co+2] | cyclic voltammetry, refers to: first Co2+/Co3+ couple | acetonitrile | – | relative to: SHE | E1/2 | 0.246 V |
| NC(=O)CC[C@@H]1NC(=O)[C@H](Cc2ccccc2)NC(=O)[C@H](Cc2ccc(O)cc2)NC(=O)[C@@H](N)CSSC[C@@H](C(=O)N2CCC[C@H]2C(=O)N[C@@H](CCCN=C(N)N)C(=O)NCC(N)=O)NC(=O)[C@H](CC(N)=O)NC1=O | radioimmunoassay | Sprague-Dawley rat, plasma | intra-arterial, 100 ng/kg, 5 min | relative to: 1 min post-injection | plasma level reduction | ~99% |
| O=C(O)CC[C@H](NC(=O)O[C@@H](CCCCNC(=O)c1ccc([18F])cc1)C(=O)O)C(=O)O | – | mouse, PC-3 PIP/flu xenografts, bladder | 30 min | – | tissue uptake | 22.4 ± 22.5 %ID/g |
| CC(C)[C@H](NC(=O)CNC(=O)[C@H](CCC(N)=O)NC(=O)[C@H](C)N)C(=O)O | – | human | intravenous infusion, 15 mg/kg/h, 2 h, relatedness Possibly | relative to: subjects | drug-related adverse events | 0% |

Some of these lines once more:
| SMILES | test | system | setting | scale | endpoint | result |
| --- | --- | --- | --- | --- | --- | --- |
| CC[C@H](C)C(=O)N1CCC(NC(=O)Nc2ccc(OC(F)(F)F)c(F)c2)CC1 | – | healthy volunteers | oral, 8 mg | relative to: fed over fasted | Tmax difference | 4.8 min |
| COCC(=O)NCCSc1c(-c2ccc(Br)cc2)[nH]c2ccccc12 | – | rat | oral | – | oral bioavailability | 11% |
| [2H]C([2H])([2H])C([2H])([2H])C([2H])([2H])OC(C(=O)OC1CCNCC1)(c1ccccc1)c1ccccc1 | – | healthy Japanese male subjects, plasma | oral, 15 mg, day 1, mean | – | tmax | 4.9 h |
| CN(C)C(CNC(=O)Nc1cc(C(F)(F)F)ccc1N1CCOCC1)c1ccncc1 (centres unmarked) | – | mouse, serum | intraperitoneal, 240 mg/kg single dose | – | serum calcium | 8.6 mg/dL |
| COc1c(C[C@@H](C)O)c2c3c(C[C@@H](C)O)c(OC)c(=O)c4c(O)cc5c(c6c(cc(O)c(c1=O)c62)OCO5)c43 | – | – | at 670 nm | – | molar absorption coefficient | 120 M⁻¹ cm⁻¹ |
